Measurements gathered from unrelated publications.
Compare with care: the assays were run in different laboratories. Values joined by “and” are separate records of one study, mostly repeats; a detail may differ. ± gives the spread as reported.

Cc1cc(Nc2cc3ncccc3c(N[C@@H]3C[C@H]4CC[C@@H](C3)N4CCC#N)n2)n[nH]1: “papular rash incidence” 0% (healthy human subjects; oral, 30 mg, 14 days, multiple ascending dose).
CN1C(C(=O)Nc2cccc(F)n2)=C(O)c2ccccc2S1(=O)=O has a pKa (basic) of < 2.
The unbound Cmax of CCO[C@H]1CCN(Cc2c(OC)cc(C)c3[nH]ccc23)[C@H](c2ccc(C(=O)O)cc2)C1 is reported as 1050 ng/mL (human moderate hepatic impairment, plasma; oral, 200 mg single dose, median).
The AUC(0-inf) ratio of COc1ccc(C(O)COc2ccc(-c3csc(-c4ccc(OCC(O)c5ccc(OC)c(OC)c5)cc4)n3)cc2)cc1OC (stereo not drawn) is reported as 3.4 (C57BL/6J mice, plasma; oral, 30 mg/kg; reference: 30 mg/kg over 10 mg/kg).
CCC(=O)N(CCC(c1ccc2c(c1)OCO2)c1ccccc1OC)Cc1ccccc1 (stereo not drawn) gave a CK of 126 U/L (female athymic nude mouse, blood; i.p., 60 mg/kg twice daily, 14 days, group mean).
The ECG observations of CCOc1c([C@H](C)n2nc(C)c3c(N)ncnc32)cc(Cl)c(F)c1[C@@H]1CNC(=O)C1 is reported as 0% (refers to: QTcF change above 60 ms; previously treated B-cell malignancy; oral, 15 mg once daily, baseline QTcF ≤450 ms; reference: baseline).
Under “reduction of viability”, COc1cc(/C=C/C(=O)CC(=O)/C=C/c2ccc(O)c(OC)c2)ccc1O is recorded as 21.8% (MTT; PC-12, rat; 30 µM, 10% FBS).
For CC1(C)S[C@@H]2[C@H](NC(=O)[C@H](N)c3ccc(O)cc3)C(=O)N2[C@H]1C(=O)O, “mean blood pressure” read 38 ± 0.2 mmHg (male Hartley guinea pigs, anaesthetized; intravenous, 3 mg/kg group, baseline before infusion).
CN1C(=O)[C@@H](NC(=O)c2nnc(Cc3ccccc3)[nH]2)COc2cccnc21 — result for “participants with any AE of special interest”: 12.5% (phase I multiple ascending dose; human, male and female; oral, 50 mg, 14 days).
C[C@H](CS)C(=O)N1CCC[C@H]1C(=O)O — result for “mean blood pressure”: 45 ± 0.4 mmHg (male Hartley guinea pigs, anaesthetized; intravenous, 10 mg/kg group, baseline before infusion).
Under “treatment-related adverse events”, FC(F)(F)c1ccc(CNc2ccc(Cc3c[nH]c4ncc(Cl)cc34)cn2)cn1 is recorded as 0% (refers to: Pruritus; patients with advanced solid tumours, non-TGCT cohort; oral, 1000 mg/day, grade 3 or higher).
Under “unbound plasma concentration”, Cc1ccc(C(=O)Nc2ccnc(S(N)(=O)=O)c2)c(N2CCCC(F)(F)CC2)n1 is recorded as 198 ± 14.5 nM (rhesus monkey, plasma; intravenous, dose not given, 60 min).
The C0 of COc1c(O)cc(C(=O)O)cc1O is reported as 230 nM (LC-MS/MS; male Ross broilers, serum; intravenous, 0.49 mg/kg gallic acid).
For CC(C)(C(=O)N1CCOc2c(C#N)cncc2C1)C(F)F, “subjects with adverse event” read 0% (refers to: chest discomfort; human; oral, 10 mg once daily, 14 days, multiple ascending dose).
For CN(C)C(=N)N=C(N)N, “subjects with adverse event” read 4.5% (refers to: respiratory, thoracic, mediastinal disorders; healthy men; oral, dose not given, 8 days, treatment-emergent, crossover trial).
The C0 of N=C(N)NCCNC(=O)C1(Nc2ccccc2)CCN(Cc2ccccc2)CC1 is reported as 13200 ± 4180 ng/mL (Sprague-Dawley rats (both sexes), plasma; intravenous, 2.5 mg/kg).
With C=CC(=O)Nc1cc(Nc2nccc(-c3cn(C)c4ccccc34)n2)c(OC)cc1N(C)CCN(C)C the recovery was 55.1% (human plasma; 24 h, storage stability, medium QC sample).
CN1CCN(C(=O)c2ccccc2N(Cc2ccccc2)S(C)(=O)=O)CC1 gave a pKa of 6.84.
The AUC(0-inf) of COc1ccc2[nH]c([S+]([O-])Cc3ncc(C)c(OC)c3C)nc2c1 (stereo not drawn) is reported as 459 ± 565 ng·h/mL (healthy Chinese volunteers, plasma; oral, 20 mg, fed, CYP2C19 normal metabolizers).
For O=C(Nc1nc2cccc(-c3ccc(CN4CCS(=O)(=O)CC4)cc3)n2n1)C1CC1, “treatment-emergent adverse events” read 0% (refers to: vomiting; rheumatoid arthritis patients; oral, 300 mg once daily, 4 weeks, any relatedness).
COc1cc2[nH]c(C)c(-c3ccc4c(c3)OCCO4)c(=O)c2cc1Cl gave a Papp of 178 ×10⁻⁶ cm/s (PAMPA; pH 7.4).
Nc1ncnc2c1ncn2[C@H]1C[C@@H]2OP(=O)(O)OC[C@H]3O[C@@H](n4cnc5c(N)ncnc54)C[C@@H]3OP(=O)(O)OC[C@H]2O1 gave an amylase of 805 ± 43.1 U/L (non-tumor-bearing mice, serum; intravenous, 1 mg/kg, toxicity study).
With COc1ncc(-c2nc3c(n2C(C)C)[C@H](c2ccc(Cl)cc2)N(c2cc(Cl)cn(C)c2=O)C3=O)c(OC)n1 the median Tmax was 4 h (human patients, plasma; oral, 20 mg, low-dose arm, cycle 1 day 8).
COc1nc(-c2cc(C)c(N[C@@H](C)c3cc(F)cc(F)c3)nn2)ccc1-n1cnc(C)c1 has a concentration of 9080 ng/g (rat Sprague-Dawley male, brain; oral, 50 mg/kg daily for 9 days, 4 h after dose).
CCc1cc2ncc(CN3CCN(c4ccc(C(=O)NC)nc4)CC3)cc2[nH]c1=O — result for “white blood cell count ratio”: 0.72 (female rat, blood; oral, 25 mg/kg/day, 4 weeks; reference: vehicle control).
With C=CCn1c(=O)c2cnc(Nc3ccc(N4CCN(C)CC4)cc3)nc2n1-c1cccc(C(C)(C)O)n1 the AUC(0-10) was 9.15 µM·h (human; oral, 300 mg once daily, monotherapy lead-in, -5 days; geometric mean).
With OCCOCc1ccc(-c2noc(-c3ccc(OCC[18F])c(C(F)(F)F)c3)n2)cc1 the effective dose was 2.6 mSv (human, extrapolated from Macaca mulatta; 115 MBq, single injection).
For Cc1ccc([C@@H]2O[C@H](CO)[C@@H](O)[C@H](O)[C@H]2O)cc1Cc1ccc(-c2ccc(F)cc2)s1, “urinary phosphate excretion change” read 74.7 mg (refers to: inorganic phosphorus; Japanese type 2 diabetes patients; 200 mg, day 5, 24 h urine collection; reference: baseline).
For CN(C)c1ccc2c(c1)c(=O)n(-c1ccc(C[C@H](NC(=O)c3c(Cl)cccc3Cl)C(=O)O)cc1)c(=O)n2C, the unbound fraction was 0.053 (cynomolgus monkey, liver).
Under “participants with TEAE”, Cc1ccc(Sc2ccccc2N2CCNCC2)c(C)c1 is recorded as 16.7% (refers to: blood in urine; healthy adult men; oral, 5 mg daily, 12 days).
COc1ccc([C@@H](O)c2cc(-c3ncnc4cc(N5CCOCC5)ccc34)c(F)cc2Cl)nn1 has an investigations TEAE of 50% (locally advanced rectal cancer patients; 250 mg, added: capecitabine and radiotherapy).
N[C@@H](C[18F])C(=O)O — result for “maximum tumour uptake”: 2 to 3 %ID/cc (PET; female athymic nude mouse, U-87 MG tumour; intravenous, 15 min).
CCNC(=O)c1ncccc1O gave a pKa (acidic) of 7.9.
For Cc1c(Br)cc(NC(=O)C(c2ccccc2)S(=O)(=O)O)cc1Br (stereo not drawn), the unbound C0 was < 30 nM (CD-1 mice, whole blood; intravenous, 2 mg/kg).
For CCCCC[C@H](O)CC[C@@H]1[C@H]2Cc3cccc(OCC(=O)O)c3C[C@H]2C[C@H]1O, “geometric mean Cmax” read 0.7 ng/mL (LC-MS/MS; male Japanese PAH patients, plasma; inhaled, 54 µg).
For COc1cc2c(Nc3ccc(Cl)c(Cl)c3F)ncnc2cc1OC[C@@H]1C[C@@H]2CN(C)C[C@@H]2C1, “unbound brain concentration” read 1.59 ng/g (FVB wild-type mice, both sexes, brain; intraperitoneal infusion (osmotic pump), dose not given, 48 h).
COc1cc(N)c(Cl)cc1C(=O)NC1CCN(CCCOc2ccc(F)cc2)CC1OC (stereo not drawn) — result for “mean blood pressure”: 32 ± 0.2 mmHg (male Hartley guinea pigs, anaesthetized; intravenous, 0.3 mg/kg over 10 min, after infusion).
For C=CCN1CC(=O)N2[C@@H](Cc3ccc(O)cc3F)C(=O)N(Cc3cccc(N4CC(N5CCN(CC)CC5)C4)n3)C[C@@H]2N1C(=O)NCc1ccccc1, “treatment-related decreased appetite” read 0% (advanced solid tumour patients; oral, 120 mg twice daily, grade ≥3, dose-escalation).
Under “upper abdominal pain incidence”, Cc1cc(-c2nccc3c2ccn3CC(=O)Nc2ccc(-c3cnccn3)cn2)ccn1 is recorded as 0% (healthy human volunteers; oral, 7 mg single dose, single ascending dose).
For CNC(=O)c1ccc(-c2cnc3ncc(Cc4ccc5ncccc5c4)n3n2)cc1F, “patients with adverse event” read 3% (refers to: Hypoalbuminemia, all grades; cancer patients; oral, 600 mg twice daily, expansion cohort, any causality).
CCN1/C(=C/C(C)=O)Sc2ccc(F)cc21 gave a PR interval of 87 ± 5 ms (cynomolgus monkey; oral, 100 mg/kg, 24 h post-dose).
Cc1c(-c2ccc(N3CCc4cccc(C(=O)Nc5nc6ccccc6s5)c4C3)nc2C(=O)O)cnn1CC12CC3(C)CC(C)(C1)CC(OCCNCC[C@H](O)CO)(C3)C2 has a plasma concentration of 19 ng/mL and 9.12 ng/mL (anaesthetized male beagle dog; iv infusion, 0.3 mg/kg/min, 30 min).
For O=C(O)CCC(=O)O.[2H]C([2H])([2H])Oc1cc(C)c2[nH]ccc2c1CN1CC[C@@H](C2CC2)C[C@H]1c1ccc(C(=O)O)cc1, “TEAE elevated monocyte” read 12.5% (healthy Chinese subjects; 125 mg twice daily, multiple ascending dose).
The AUC(0-12 h) of C[C@@H](Nc1cc(F)cc(F)c1)c1cc(C(=O)N(C)C)cc2c(=O)cc(N3CCOCC3)oc12 is reported as 2600 ng·h/mL (refers to: M1 metabolite; human; oral, 120 mg, single dose day 1, 2:5 BID regimen).
The brightness of Cc1ccc2c(c1)sc(-c1ccc(N(C)C)cc1)[n+]2C is reported as 36 M⁻¹ cm⁻¹ (PBS; free dye).
For CNCc1ccc(-c2[nH]c3cc(F)cc4c3c2CCNC4=O)cc1, the constipation incidence was 0% (patients; oral, 600 mg twice daily, grade 4).
For CC[C@H](C)[C@H](NC(=O)CN)C(=O)N[C@@H](CC(C)C)C(=O)N[C@@H](CC(=O)O)C(=O)N[C@@H](C)C(=O)N[C@H](C(=O)N[C@@H](CCCCN)C(=O)N[C@@H](C)C(=O)N[C@H](C(=O)N[C@@H](C)C(=O)N[C@@H](CCCCN)C(=O)N[C@@H](C)C(=O)N[C@H](C(=O)N[C@@H](CCCCN)C(=O)N[C@@H](C)C(=O)N[C@@H](CCCCN)C(=O)N[C@@H](C)C(=O)NCC(N)=O)[C@@H](C)CC)[C@@H](C)CC)[C@@H](C)CC, “mean residue ellipticity” read -5930 deg cm2/dmol (circular dichroism at 222 nm; 10 mM SDS; 100 µM, pH 4.0).
With COc1cc2c3c(n(CCCN4CCOCC4)c(=O)c2cc1OC)-c1cc2c(cc1C3=O)OCO2 the CL was 38.9 ± 6.3 L/h/m² (beagle dog, female, plasma; intravenous infusion, 10 mg/m^2, 1 h infusion, vehicle 1).
CCN1CCN(Cc2ccc(NC(=O)c3ccc(C)c(NC(=O)c4cncc(-c5cccs5)c4)c3)cc2C(F)(F)F)CC1 gave an AUC(0-inf) of 6540 ng·h/mL (C57BL/6 mice, epithelial lining fluid; intraperitoneal, 20 mg/kg).
C[C@@H]1COCCN1c1cc(C2([S@](C)(=N)=O)CC2)nc(-c2cc[nH]c3nccc2-3)n1 has a Vomiting incidence of 0% (Japanese advanced solid tumour patients; oral, 160 mg twice daily, CTCAE grade ≥3).
CC(=O)Oc1ccccc1C(=O)O: “mean blood pressure” 32 ± 0.1 mmHg (male Hartley guinea pigs, anaesthetized; intravenous, 10 mg/kg group, baseline before infusion).
For CC(C)(C)c1ccc(O)c(CN(Cc2cc(C(C)(C)C)ccc2O)C2CCC(NC(N)=O)CC2)c1 (stereo not drawn), “elimination rate constant” read 7.78e-05 s⁻¹ (C57BL/6 mice, male, plasma; intraperitoneal, 10 mg/kg).
Under “maximum ACTH level”, N#Cc1ccc2c(c1)[C@H]1CCCN(C(=O)c3ccc4[nH]cnc4c3)[C@H]1C2 is recorded as 15.6 pmol/L (human; 240 mg, day 7).
O=C(N[C@H](Cc1c[nH]c2ccccc12)C(=O)Nc1ccncc1)c1ccc(-c2ccc(F)c(Cl)c2)cc1F gave a concentration of 9250 nM (Swiss Webster mouse, female, heart; oral, 50 mg/kg, 8 h, 20% HPβCD vehicle).
C[C@@H]1O[C@@H](O[C@H]2[C@H](Oc3cc(O)c4c(c3)O[C@H](c3ccc(O)cc3)CC4=O)O[C@H](CO)[C@@H](O)[C@@H]2O)[C@H](O)[C@H](O)[C@H]1O has a Papp of 1.03 ± 1.3 ×10⁻⁶ cm/s (PBS receiver; 50 mg/mL, 360 min, pH 6.8).
With COCCCNC(=N)c1ccc(NC(=O)c2ccc(C(=O)Nc3ccc(C(=N)NCCCOC)cc3)cc2)cc1 the maximum haemolysis was 40% (sheep erythrocytes; 1 h, pH 7.5).
Cc1cc(-c2nnc(N)nc2-c2ccc(F)cc2)cc(Cl)n1 — result for “patients with immune-mediated AE”: 0% (refers to: psoriasiform dermatitis; IO-naive mCRPC patients, male; oral, dose not given, treatment-related, grade 1).

Repeated from above:
N[C@@H](C[18F])C(=O)O — result for “maximum tumour uptake”: 2 to 3 %ID/cc (PET; female athymic nude mouse, U-87 MG tumour; intravenous, 15 min).
For CN(C)c1ccc2c(c1)c(=O)n(-c1ccc(C[C@H](NC(=O)c3c(Cl)cccc3Cl)C(=O)O)cc1)c(=O)n2C, the unbound fraction was 0.053 (cynomolgus monkey, liver).
With C=CCn1c(=O)c2cnc(Nc3ccc(N4CCN(C)CC4)cc3)nc2n1-c1cccc(C(C)(C)O)n1 the AUC(0-10) was 9.15 µM·h (human; oral, 300 mg once daily, monotherapy lead-in, -5 days; geometric mean).
COc1cc2[nH]c(C)c(-c3ccc4c(c3)OCCO4)c(=O)c2cc1Cl gave a Papp of 178 ×10⁻⁶ cm/s (PAMPA; pH 7.4).
Under “maximum ACTH level”, N#Cc1ccc2c(c1)[C@H]1CCCN(C(=O)c3ccc4[nH]cnc4c3)[C@H]1C2 is recorded as 15.6 pmol/L (human; 240 mg, day 7).
For CCCCC[C@H](O)CC[C@@H]1[C@H]2Cc3cccc(OCC(=O)O)c3C[C@H]2C[C@H]1O, “geometric mean Cmax” read 0.7 ng/mL (LC-MS/MS; male Japanese PAH patients, plasma; inhaled, 54 µg).
